Published values pooled from the literature.
Every numbered part comes from another study and shows a few of its results, in no order.

Study 1
Target: Sal-like protein 4, full length isoform A (SALL4, Homo sapiens, UniProt Q9UJQ4, residues 1-1053)
UniProt Q9UJQ4, sequence (whole entry, looked up): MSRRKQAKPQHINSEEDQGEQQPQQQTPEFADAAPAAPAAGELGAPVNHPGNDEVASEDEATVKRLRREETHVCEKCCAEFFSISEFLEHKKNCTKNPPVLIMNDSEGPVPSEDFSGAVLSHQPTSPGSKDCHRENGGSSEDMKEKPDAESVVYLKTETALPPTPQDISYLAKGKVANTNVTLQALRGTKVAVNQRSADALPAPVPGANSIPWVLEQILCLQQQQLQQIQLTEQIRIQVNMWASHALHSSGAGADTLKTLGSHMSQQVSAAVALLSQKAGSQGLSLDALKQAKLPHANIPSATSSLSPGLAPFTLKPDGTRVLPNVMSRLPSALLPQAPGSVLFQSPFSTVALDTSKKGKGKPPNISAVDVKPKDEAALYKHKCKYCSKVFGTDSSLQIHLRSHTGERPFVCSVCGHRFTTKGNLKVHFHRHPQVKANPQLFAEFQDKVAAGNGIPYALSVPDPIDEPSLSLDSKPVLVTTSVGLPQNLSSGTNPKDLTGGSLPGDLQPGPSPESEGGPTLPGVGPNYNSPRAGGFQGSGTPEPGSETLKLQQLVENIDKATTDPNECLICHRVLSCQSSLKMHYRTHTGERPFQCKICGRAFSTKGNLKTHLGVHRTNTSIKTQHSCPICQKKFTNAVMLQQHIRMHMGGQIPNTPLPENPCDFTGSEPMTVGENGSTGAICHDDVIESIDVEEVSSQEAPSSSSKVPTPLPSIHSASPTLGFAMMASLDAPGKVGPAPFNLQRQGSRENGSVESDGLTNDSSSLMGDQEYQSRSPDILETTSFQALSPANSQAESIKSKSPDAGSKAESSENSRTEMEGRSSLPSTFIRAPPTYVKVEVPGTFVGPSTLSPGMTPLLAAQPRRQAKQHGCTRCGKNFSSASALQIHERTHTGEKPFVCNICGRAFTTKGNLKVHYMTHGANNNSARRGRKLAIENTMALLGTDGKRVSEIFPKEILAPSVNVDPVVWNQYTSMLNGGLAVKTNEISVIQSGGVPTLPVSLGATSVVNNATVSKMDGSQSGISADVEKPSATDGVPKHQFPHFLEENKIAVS
Technique: universal PBM
Form: double-stranded DNA, one strand shown
Sample: in vitro
Tested at: 600 nM
Setting: 8-mer, flanks averaged, mean of replicates
Direction: higher = stronger binding
With `CAGTGAGG` the E-score was -0.214.
For `CTTCTTCA`, the E-score was 0.141.
For `AGACGGAT`, the E-score was -0.0101.
With `GCTTATCA` the E-score was 0.0167.
`CGGCACGA` has an E-score of -0.278.
`ATGCCAAT` gave an E-score of 0.121.
With `CCACTTAC` the E-score was -0.0359.
With `AACGTACA` the E-score was 0.129.
`CGTCAAGC` has an E-score of -0.16.
`ATTAACTG` gave an E-score of 0.349.
The E-score of `ACATGGAA` is reported as 0.176.
`TAAGCAAA` has an E-score of 0.226.
`ACCGGGCC` gave an E-score of -0.393.
`GATAGGGA` has an E-score of -0.0495.
The E-score of `CATCCTCG` is reported as -0.024.
`CGAAAATA` gave an E-score of 0.27.
`ATAGAGTC` has an E-score of -0.0324.
With `CCTCCCCG` the E-score was -0.237.
For `CTTTCCGC`, the E-score was -0.243.
The E-score of `AACCGGCA` is reported as -0.299.
With `ACCCCGTC` the E-score was -0.392.
`AGTGTGAG` gave an E-score of 0.0639.
The E-score of `CCTACTAA` is reported as -0.0205.
For `ATAGCTGC`, the E-score was 0.136.
`ACCTACAC` has an E-score of -0.00765.

Study 2
Target: UBE2H UBC core domain (UniProt P62256)
UniProt P62256, sequence (whole entry, looked up): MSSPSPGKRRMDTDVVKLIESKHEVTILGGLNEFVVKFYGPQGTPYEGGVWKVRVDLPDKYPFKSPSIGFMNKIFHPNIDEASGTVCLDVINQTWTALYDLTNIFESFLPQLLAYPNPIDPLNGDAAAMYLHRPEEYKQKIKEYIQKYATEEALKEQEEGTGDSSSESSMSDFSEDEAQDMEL
Technique: yeast two-hybrid
Sample: yeast
Setting: mostly zero background
Relative to: not given
Direction: higher = stronger interaction
B1: TRIM40 RING domain (UniProt Q6P9F5); chain LQKDNQEEGVCPICQESLKEAVSTNCGHLFCRVCLTQHVEKASASGVFCCPLCRKPCSEEVLG
B2: TRIM24 RING domain (UniProt O15164); chain EAARLNLLDTCAVCHQNIQSRAPKLLPCLHSFCQRCLPAPQRYLMLPAPMLGSAETPPPVPAPGSPVSGSSPFATQVGVIRCPVCSQECAERHII
B3: MKRN1 RING domain (UniProt Q9UHC7); chain FAVQRSKDMVCGICMEVVYEKANPSERRFGILSNCNHTYCLKCIRKWRSAKQFESKIIKSCPECRITSNFVIPSE
B4: RNF38 RING domain (UniProt Q9H0F5); chain PNNHQSEQTLCVVCMCDFESRQLLRVLPCNHEFHAKCVDKWLKANRTCPICRADASEVHRDS
B5: DTX4 RING domain (UniProt Q9Y2E6); chain QKVRHPPDEDCTICMERLTAPSGYKGPQPTVKPDLVGKLSRCGHVYHIYCLVAMYNNGNKDGSLQCPTCKTIYGVKTGTQ
B6: TRIM43 RING domain (UniProt Q96BQ3); chain FSHAFQKELTCVICLNYLVDPVTICCGHSFCRPCLCLSWEEAQSPANCPACREPSPKMDFKT
B7: RNF111 RING domain (UniProt Q6ZNA4); chain EGTEEDTEEKCTICLSILEEGEDVRRLPCMHLFHQVCVDQWLITNKKCPICRVDIEAQLPSE
`B1 (TRIM40 RING domain)` — result for “lacZ reporter activity”: 0.
For `QVDKAVFHMQSVKCLKCQEQKRAVLPCQHAALCELCAEGSECPICQPGRAHTLQS (UNK RING domain (UniProt Q9C0B0))`, “lacZ reporter activity” read 0.
`B2 (TRIM24 RING domain)`: “lacZ reporter activity” 0.
`B3 (MKRN1 RING domain)` — result for “lacZ reporter activity”: 0.
`B4 (RNF38 RING domain)` — result for “lacZ reporter activity”: 0.
`B5 (DTX4 RING domain)`: “lacZ reporter activity” 0.
For `B6 (TRIM43 RING domain)`, “lacZ reporter activity” read 0.
Under “lacZ reporter activity”, `B7 (RNF111 RING domain)` is recorded as 0.
`PAELEVQASECVVCLEREAQMIFLNCGHVCCCQQCCQPLRTCPLCRQDIAQRLRIY (LRSAM1 RING domain (UniProt Q6UWE0))` — result for “lacZ reporter activity”: 0.
Under “lacZ reporter activity”, `DHGAVGQEMCCPICCSEYVKGEVATELPCHHYFHKPCVSIWLQKSGTCPVCRCMFPPPL (PJA1 RING domain (UniProt Q8NG27))` is recorded as 0.
`VEPSEENSKDCVVCQNGTVNWVLLPCRHTCLCDGCVKYFQQCPMCRQFVQESFALC (CGRRF1 RING domain (UniProt Q99675))` — result for “lacZ reporter activity”: 0.
For `MPIRALCTICSDFFDHSRDVAAIHCGHTFHLQCLIQWFETAPSRTCPQCRIQVGKRTIIN (TRAIP RING domain (UniProt Q9BWF2))`, “lacZ reporter activity” read 0.
`FQGDVDEDLICPICSGVLEEPVQAPHCEHAFCNACITQWFSQQQTCPVDRSVVTVAHLRP (RNF41 RING domain (UniProt Q9H4P4))` — result for “lacZ reporter activity”: 0.

Study 3
Target: RING finger protein unkempt homolog, zinc fingers 1-6, GST-SBP tag (UNK, Homo sapiens, UniProt Q9C0B0, residues 30-357)
Technique: RNA Bind-n-Seq
Form: RNA
Sample: in vitro
Tested at: not given
Setting: RNA with constant flanks, human and mouse sites, ends assumed
Relative to: input RNA pool
Direction: higher = stronger binding
Shared flanks, not repeated: GGGAGUUCUACAGUCCGACGAUC … CAACAGAGGAUUGAGCAUCA
With `CUGAUGCAGUUGCUGGAUGAGGCGCUAACGGAGGUGGACCAGAUUGAACUGAAACUGAGCAGUUACGAGGAGAUGCUCCAAAGUGUGAAAGAGCAGAUGGAUCAGAUCUCUGAGAGCAAC` the bound/input enrichment was 0.202 ratio.
The bound/input enrichment of `CCCAAGUUCCUCAUUUUACAGCUGGGGAAACUAAGGCCUAGAGAGAGGCAAGUGAUAUUUGUUUCAUGGCAGGGCUGGGCUGAGAUCCUGCUUUUCUGGGUCUGUCUUUUUGCUCUUUUG` is reported as 0.17 ratio.
For `UUCCAGUGUCCAAUAUGUGGUUUGGUUAUUAAAAGGAAGAGUUACUGGAAGCGGCACAUGGUGAUUCACACAGGUUUAAAAAGUCAUCAGUGUCCGCUCUGUCCAUUCCGGUGUGCUCGC`, the bound/input enrichment was 0.182 ratio.
For `CAGAGAGAGGCUGUGCUUGCAGCUUACUGGCGAGGCCAGUGCAUCAAAGAUGCCCACCUCCCGCCUGGAUCCAUGGCAGCUGUUGGUUUGUCCUGGGAGGAAUGUAAACAGCGCUGCCCC`, the bound/input enrichment was 0.107 ratio.
With `UGCCCGGGGCCACGCUACGAGCUGCGGGACUGCUGCUGGGUGCUGUGCGCGCUGCUCGUGUUCUUCUCCGACGGCGCCACCGACCUGUGGCUGGCGGCCUCCUACUACCUGCAGGGUCAG` the bound/input enrichment was 0.17 ratio.
`CCGUGUGACCCUUGGGCUUUCAGCGUGCACUCAGUUCCGUAGGAUUCCAAAGCAGACCCCUAGCUGGUCUUUGAAUCUGCAUGUACUUCACGUUUUCUAUAUUUGUAACUUUGCAUGUAU` has a bound/input enrichment of 0.175 ratio.
`ACUCCUGUUACCUUGAAAAAUAAAAAUGUUAACAGGAAUGCAGUGUGCUCAUUAUCCCUAACUAGCAAAUCCUACUUUAUGCAAAGCUGUUCUCUUGUUCUGCUGUUUUAAAUGUCCAUG` gave a bound/input enrichment of 1.27 ratio.
For `AUCAAGGGUAAAAUUCCAUUCUGAUAUCAAAAUGCAGUAUUCGCACCACUGUGAGCACCUUUUAGAGAGACUGAACAAACAGCGGGAAGCAGGUUUUCUCUGUGACUGUACCAUAGUGAU`, the bound/input enrichment was 0.566 ratio.

Study 4
Target: RNA binding protein fox-1 homolog 2, RRM domain, GST-SBP tag (RBFOX2, Homo sapiens, UniProt O43251-10, residues 100-194)
Technique: RNA Bind-n-Seq
Form: RNA
Sample: in vitro
Tested at: 365 nM
Setting: natural RNA segment, single round, ends assumed
Relative to: no-protein control
Direction: higher = stronger binding
Shared flanks, not repeated: GGGAGUUCUACAGUCCGACGAUC … UGGAAUUCUCGGGUGCCAA
Residues (chain): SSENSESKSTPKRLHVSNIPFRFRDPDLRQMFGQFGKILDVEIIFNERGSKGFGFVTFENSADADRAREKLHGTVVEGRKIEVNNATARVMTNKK
`GCCUGCAUGACCAGCUGGCUUCAGUGAUUUCUCCGUUUCCCUCUUUAGUUUCUAGGAAGCCACUGUGCUGUGCUAAGAAGCAGUUGGUCAGGAGGGCUCAGCCCAGGAGC` — result for “RBNS enrichment (R)”: 0.509.
Under “RBNS enrichment (R)”, `UCAUGAUUAUUUUAGAAACUGGAUUUUAAAAAGUCUUUUAGAGUUUCACAACAAGGAGAAGCCACAGUUUGUGGCAUCCUAUAGUUUUACAUUGUGUAUUUCUUCCUUUU` is recorded as 0.435.
For `GUGGUAAGGAAAGAAACAGGAGGUGCUAGAGGAACCAAGAGUUCUGGUCAUUAACUCAGUCAUGCCGAGCACCAGGGCGCUGGUUCUGAAACGGUUAAGAGAAAGGCUCU`, “RBNS enrichment (R)” read 0.973.
`AAUGUUAUUAUUGGCUUGCACUUUGUGAGUAUUCUAUGUAAAAAUAUAUAUGUAUAUAAAAUAUAUAUUGCAUAGGACAGACUUAGGAGUUUUGUUUAGAGCAGUUAACA`: “RBNS enrichment (R)” 4.2.
`GAAAGCUAAAAUGGUGGUCUUCUCCACCAGCCCCUCACAGGCUUGGGGGUUUUCAAUGUGAAACACAUGCCAGUUUUUAAAAUGCUGCUUUGUCCAGGUGAGAACAUCCA` — result for “RBNS enrichment (R)”: 0.317.
Under “RBNS enrichment (R)”, `UGGUGCCACAGCUCACUGUGACCUUGACCUUCUGGACUCAAGUGAUCCUCCUGCCUCAGCUUCCCAAGUAGCGGGGAUCACAGGCAUGAGCCGCCACACCCGGCCAUCAC` is recorded as 0.132.
`CCUUCACAAGUCUGCCUUUCACCUGUGUCUGCUUCAGCAAAAUGUUCUUUCACAUUUGCCCCAGCAAAACCCCAUCUAACACAACUGACUUUCCAAAGAACCCUUAAGUU` — result for “RBNS enrichment (R)”: 0.417.
`UCUCCACUGCUGCCUCCCAGCAGAGGGCCCCAGGAUCUCCAAGGUCCCAGCUAUGGCUUUGGACAACGUGGCUUCGGCCCCUGGGGUUGCAGAGCUUGCAUUGGGUUUAC` — result for “RBNS enrichment (R)”: 0.196.
